Results pooled from the literature.
Lines come from different studies, so protocols differ. “And” joins repeats or separate records; there may be more than shown. ± gives the spread as reported.

SMILES | target or system | test | system | conditions | how to read | measurement | value
CC(C)CC(O)(CC(C)C)c1cn(C(=O)N2CCCC2)nn1 | mouse T-cells | N-terminal labelling enrichment, refers to: Samsn1 N-terminal peptides |  | 1 nM, 6 h, protein median | reference: DMSO | SILAC ratio | 0.56
CC(=O)NCSC[C@H](NC(=O)[C@@H]1CCCN1C(=O)[C@H](C)NC(=O)[C@@H](NC(=O)CNC(=O)[C@@H](NC(=O)[C@H](Cc1c[nH]c2ccccc12)NC(=O)[C@H](C)NC(=O)CNC(=O)[C@H](CO)NC(=O)[C@H](C)NC(=O)[C@@H]1CCCN1C(=O)[C@H](Cc1c[nH]c2ccccc12)NC(=O)[C@H](C)NC(=O)[C@H](C)NC(=O)[C@@H](N)Cc1ccc(O)cc1)[C@@H](C)O)[C@@H](C)O)C(=O)N[C@@H](CO)C(=O)N[C@@H](C)C(=O)NCC(=O)N[C@H](C(=O)NCCOCCOCCOCCOCCOCCOCCOCCOCCOCCOCCOCCOCCC(=O)N[C@@H](CS)C(N)=O)[C@@H](C)O | PANC-1 pancreatic cancer | cell binding, phage binding, refers to: output/input phage |  | 10 min, 37 °C | reference: control phage | selectivity ratio | 44 ± 12
O=C1NC2(CC2)COc2ncc(F)cc2[C@H]2COCCN2c2ccn3ncc1c3n2 |  |  | Sprague-Dawley rat, female, liver | oral, 10 mg/kg/day, 4 weeks dosing, end of recovery |  | organ-to-body weight ratio | 2.94 ± 0.174%
O=C(C[Se]C(=O)c1cccs1)Nc1cccc(C(F)(F)F)c1 | NCI60 ovarian subpanel | cell growth, inhibitor |  | five-dose |  | GI50 | 1.74 µM
COc1ccccc1-c1ccncc1C(=O)Nc1nnc(OCc2ccc(Cl)cc2)s1 | RPE-1 BRCA1 WT parental |  |  | 0.5 µM, run 2 | reference: untreated | colony survival | 78.9%
Cc1cc(Oc2nc(N3CC[C@@H](c4ccncc4)C3)ncc2F)[nH]n1 | A-431 | cell proliferation |  |  |  | IC50 | 61.7 µM
O=C(C[Se]C(=O)c1ccccc1Nc1ccccc1)Nc1cccc(C(F)(F)F)c1 | NCI60 NSCLC subpanel | NCI60 five-dose screen |  |  |  | CC50 | 6.08 µM
CC(C)[C@H](NC(=O)[C@H](CCCNC(=N)N)NC(=O)[C@@H]1CCCN1C(=O)[C@@H](NC(=O)[C@H](C)NC(=O)[C@H](Cc1ccc(O)cc1)NC(=O)[C@H](CCC(N)=O)NC(=O)[C@H](CCCCN)NC(=O)[C@H](CCCNC(=N)N)NC(=O)[C@@H]1CCCN1C(=O)[C@H](CCC(=O)O)NC(=O)[C@@H](NC(=O)[C@H](C)N)[C@@H](C)O)[C@@H](C)O)C(=O)N[C@@H](Cc1ccccc1)C(=O)N[C@@H](Cc1c[nH]c2ccccc12)C(=O)N[C@H](C(=O)N[C@@H](CC(=O)O)C(=O)N[C@@H](C)C(=O)N1CCC[C@H]1C(=O)NCC(=O)NCCOCCOCCOCCOCCOCCOCCOCCOCCOCCOCCOCCOCCC(=O)N[C@@H](CS)C(N)=O)[C@@H](C)O | H2087 | phage binding |  | 10 min, 37 °C | reference: control phage | selectivity ratio | 1.3 ± 1.1
O=C(C[Se]C(=O)c1ccccc1)Nc1cccc(C(F)(F)F)c1 | NCI60 NSCLC subpanel | NCI60 five-dose screen |  |  |  | CC50 | 11.3 µM
Cc1cccc(-c2cccc(C)n2)n1.Cc1cccc(-c2cccc(C)n2)n1.F[P-](F)(F)(F)(F)F.F[P-](F)(F)(F)(F)F.[Ru+2].c1ccc2c(-c3nc4c5cccnc5c5ncccc5c4[nH]3)cccc2c1 | SK-MEL-28 | cell viability |  | normoxia, added: green light 523 nm, 100 J/cm2 |  | EC50 | 22.3 ± 0.6 µM
CSCC[C@H](NC(=O)[C@@H](NC(=O)[C@H](CCC(N)=O)NC(=O)[C@H](CO)NC(=O)[C@@H](N)C(C)C)[C@@H](C)O)C(=O)N[C@@H](CCCNC(=N)N)C(=O)N[C@@H](CCC(N)=O)C(=O)N[C@H](C(=O)N[C@@H](C)C(=O)N[C@H](C(=O)N1CCC[C@H]1C(=O)N[C@@H](CC(C)C)C(=O)N[C@@H](CC(C)C)C(=O)N[C@@H](Cc1c[nH]c2ccccc12)C(=O)N[C@@H](Cc1ccccc1)C(=O)N[C@@H](Cc1c[nH]c2ccccc12)C(=O)N[C@H](C(=O)NCC(=O)N[C@@H](CO)C(=O)N[C@@H](CC(C)C)C(=O)NCCOCCOCCOCCOCCOCCOCCOCCOCCOCCOCCOCCOCCC(=O)N[C@@H](CS)C(N)=O)[C@@H](C)O)C(C)C)[C@@H](C)O | H661 lung large cell carcinoma | cell binding, phage binding, refers to: output/input phage |  | 10 min, 37 °C | reference: control phage | selectivity ratio | 2.8 ± 1
O=C(C[Se]C(=O)c1ccco1)Nc1cccc(C(F)(F)F)c1 | NCI60 ovarian subpanel | cytotoxicity, inhibitor |  | five-dose |  | CC50 | 66.6 µM
O=C(O)c1ccc(-c2nc(-c3ccccc3Cl)c3sccn23)cc1 | K562 | megakaryocyte differentiation, flow cytometry |  | 0.1 mM, 48 h | reference: untreated | CD61 fluorescence intensity | 1.63 fold change and 1.17 fold change
CC(C)C[C@H](NC(=O)[C@H](CC(=O)O)NC(=O)CNC(=O)[C@@H](N)CCCNC(=N)N)C(=O)N[C@@H](C)C(=O)N[C@H](C(=O)N[C@@H](CC(C)C)C(=O)N[C@@H](CCCNC(=N)N)C(=O)N[C@@H](CCC(N)=O)C(=O)N[C@@H](CC(C)C)C(=O)N[C@@H](C)C(=O)N[C@@H](CCC(N)=O)C(=O)N[C@@H](CCC(=O)O)C(=O)N[C@@H](CC(=O)O)C(=O)NCC(=O)N[C@H](C(=O)N[C@H](C(=O)NCC(=O)N[C@H](C(=O)N[C@@H](CCCNC(=N)N)C(=O)NCCOCCOCCOCCOCCOCCOCCOCCOCCOCCOCCOCCOCCC(=O)N[C@@H](CS)C(N)=O)C(C)C)C(C)C)C(C)C)[C@@H](C)O | PANC-1 pancreatic cancer | cell binding, phage binding, refers to: output/input phage |  | 10 min, 37 °C | reference: control phage | selectivity ratio | 1.4 ± 0.5
CC(=O)Oc1ccccc1C(=O)[Se]CC(=O)Nc1cccc(C(F)(F)F)c1 | NCI60 ovarian subpanel | cytotoxicity, inhibitor |  | five-dose |  | CC50 | 48.7 µM
CC(C)(C)C(=O)OCOP(=O)(OCOC(=O)C(C)(C)C)C1CCCN(O)C1=O (stereo not shown) | SR |  |  |  |  | GI50 | 0.433 µM

Repeated from above:
SMILES | target or system | test | system | conditions | how to read | measurement | value
Cc1cccc(-c2cccc(C)n2)n1.Cc1cccc(-c2cccc(C)n2)n1.F[P-](F)(F)(F)(F)F.F[P-](F)(F)(F)(F)F.[Ru+2].c1ccc2c(-c3nc4c5cccnc5c5ncccc5c4[nH]3)cccc2c1 | SK-MEL-28 | cell viability |  | normoxia, added: green light 523 nm, 100 J/cm2 |  | EC50 | 22.3 ± 0.6 µM
O=C1NC2(CC2)COc2ncc(F)cc2[C@H]2COCCN2c2ccn3ncc1c3n2 |  |  | Sprague-Dawley rat, female, liver | oral, 10 mg/kg/day, 4 weeks dosing, end of recovery |  | organ-to-body weight ratio | 2.94 ± 0.174%
